Measured values gathered from unrelated publications.
Protocols differ between the studies behind these lines.

C[C@H](Oc1ccc(Br)cc1-c1ccon1)C(=O)O — Cmax ratio (human, plasma; 800 mg single dose; relative to: female over male): 1.3
CCCCC1=NC2(CCCC2)C(=O)N1Cc1ccc(-c2ccccc2S(=O)(=O)Nc2noc(C)c2C)c(COCC)c1 — Cmax ratio (healthy humans, plasma; oral, 800 mg; relative to: fed over fasted): 2.12
COc1cc2nccc(Oc3ccc(NC(=O)c4cc5c(n(-c6ccccc6)c4=O)CCCC5=O)nc3)c2cc1OC — Cmax ratio (food effect; human; oral, 10 mg; relative to: day 57 over day 28): 1.13
O=C(c1nc2n(n1)[C@H](c1ccccc1)C[C@@H]2F)C1CC1 — Cmax ratio (human; oral, 75 mg; relative to: high-fat meal over fasted): 1.21
C=CC(=O)NC1CCN(c2ncc3ncnc(Nc4ccc(Oc5ccc6c(c5)ncn6C)c(C)c4)c3n2)CC1 — Cmax ratio (healthy male humans, plasma; oral, with: carbamazepine; relative to: with over without carbamazepine): 58.8%
C=CC(=O)NC1CCN(c2ncc3ncnc(Nc4ccc(Oc5ccc6c(c5)ncn6C)c(C)c4)c3n2)CC1 — Cmax ratio (human, male, plasma; oral, 240 mg, adjusted geometric means; relative to: fed over fasted): 126%
COc1ccc2nc([S@@+]([O-])Cc3ncc(CO)c(OC)c3C)[nH]c2c1 — Cmax ratio (human; mean over sessions; relative to: (R)-OH-omeprazole over compound): 7.1 fold
N#CCNC(=O)c1ccc(-c2ccnc(Nc3ccc(N4CCOCC4)cc3)n2)cc1 — Cmax ratio (healthy human volunteers, plasma; oral, with: single-dose rifampin; relative to: compound alone): 140%
N[C@]1(C(=O)O)[C@H]2[C@@H](C[C@@H]1F)[C@@H]2C(=O)O — Cmax ratio (human, both sexes, plasma; oral, 20 mg, single dose; relative to: fed over fasted): 0.677
CC(C)=CCC/C(C)=C/CC/C(C)=C/CC[C@@](C)(O)CCC1=C(C)C(=O)C(C)=C(C)C1=O — Cmax ratio (human, plasma; oral, with: itraconazole; relative to: with over without itraconazole): 345%
CC(=O)N[C@H]1CC[C@H](NC(=O)CN2CCN(c3nncc(-c4ccc(C)cc4)n3)CC2)CC1 — Cmax ratio (healthy human, plasma; oral, 100 mg single dose; relative to: female over male): 1.3
CC(C)[C@@H]1CC[C@@H](C)C[C@H]1OC(=O)O[C@@H](C)OC(=O)[C@H]1[C@@H]2C[C@H](F)[C@@](N)(C(=O)O)[C@@H]21 — Cmax ratio (human, plasma; oral, 20 mg, single dose; relative to: fed over fasted): 0.726

A few entries again:
C=CC(=O)NC1CCN(c2ncc3ncnc(Nc4ccc(Oc5ccc6c(c5)ncn6C)c(C)c4)c3n2)CC1 — Cmax ratio (human, male, plasma; oral, 240 mg, adjusted geometric means; relative to: fed over fasted): 126%
COc1ccc2nc([S@@+]([O-])Cc3ncc(CO)c(OC)c3C)[nH]c2c1 — Cmax ratio (human; mean over sessions; relative to: (R)-OH-omeprazole over compound): 7.1 fold
